Measurements from different studies.
± marks the error that the study gave.

The Cmax of `CCCOc1ccc(S(=O)(=O)NCCC2CCCN2C)cc1-c1nc2c(CCC)nn(C)c2c(=O)[nH]1` (stereo not shown) is reported as 596 ± 147 ng/mL (healthy male humans, plasma; oral, 200 mg, together with: dapoxetine 60 mg).
`C#Cc1cccc(Nc2ncnc3cc(OCCOC)c(OCCO)cc23)c1` has a Cmax of 56 ± 43 ng/mL (human, plasma; erlotinib, day 29, normalised to erlotinib 150 mg, together with: dovitinib).
`Cc1ccc(C(=O)NC2CC2)cc1-n1ncc(C(=O)c2cccc(C#N)c2)c1N` gave a Cmax of 116 ng/mL (human, plasma; oral, 14 mg, single dose alone, geometric mean).
The Cmax of `CCOCCn1c(C2CCN(CCc3ccc(C(C)(C)C(=O)O)cc3)CC2)nc2ccccc21` is reported as 270 ng/mL (human, moderate renal insufficiency, plasma; oral, 20 mg, geometric LS mean).
The Cmax of `O=C([O-])CCCCCCCNC(=O)c1ccccc1O.[Na+]` is reported as 1260 ng/mL (human, mild hepatic impairment, plasma; oral, once daily, day 10, after dose 10, geometric mean).
For `COc1ccc2nc([S@@+]([O-])Cc3ncc(C)c(OC)c3C)[nH]c2c1`, the Cmax was 6580 ± 5290 ng/mL (human, CYP2C19 intermediate metabolizers, plasma; oral, 40 mg/day, day 5).
For `NC(=O)N1CCC(CC(=O)N2CCC([C@H]3c4ncc(Br)cc4CCc4cc(Cl)cc(Br)c43)CC2)CC1`, the Cmax was 2040 ng/mL (human, plasma; oral, 200 mg twice daily, cycle 1 day 15, together with: gemcitabine 600 mg/m2).
`C[C@H](N)C(=O)N1C[C@H](CCCB(O)O)[C@](N)(C(=O)O)C1` gave a Cmax of 2080 ± 632 ng/mL (human patients, plasma; oral, 150 mg single dose, cycle 1 day 1).
`CC(C)n1nc(-c2ccc3oc(N)nc3c2)c2c(N)ncnc21` has a Cmax of 296 ng/mL (human, plasma; oral, 20 mg once weekly, cycle 1 day 1).
The Cmax of `O=C(/C=C/c1cccc(S(=O)(=O)Nc2ccccc2)c1)NO[C@@H]1O[C@H](C(=O)O)[C@@H](O)[C@H](O)[C@H]1O` is reported as 90800 ng/mL (human mild liver dysfunction, plasma; intravenous, 400 mg/m^2, 30 min infusion, cycle 1 day -7, together with: belinostat 400 mg/m^2 iv).
For `O=C(O)CNC(=O)c1c(O)c2ccccc2n(OCC2CC2)c1=O`, the Cmax was 1590 ± 682 ng/mL (LC-MS/MS; human, blood; oral, 150 mg multiple doses).
`O=C(Cc1cccc(OC(F)(F)F)c1)Nc1ccc(CCCCc2nnc(NC(=O)Cc3ccccn3)s2)nn1` has a Cmax of 1140 ng/mL (human patients, plasma; oral, 600 mg three times daily fasted, cycle 1 day 15 steady state).
For `COCCCCn1c(C(=O)N(CC(C)C)[C@@H]2CNC[C@H](C(=O)N3CCOCC3)C2)nc2ccccc21`, the Cmax was 764 ng/mL (non-elderly human, plasma; oral, 80 mg once daily, day 1).
`C=CCNC1=C2C[C@@H](C)C[C@H](OC)[C@H](O)[C@@H](C)/C=C(\C)[C@H](OC(N)=O)[C@@H](OC)/C=C\C=C(/C)C(=O)NC(=CC1=O)C2=O` has a Cmax of 10.9 µM (human, plasma; intravenous infusion, 350 mg/m^2, day 1, 3 h infusion).
With `CC#CC(=O)NCCCC(=O)c1nc(-c2ccc(C(=O)Nc3ccccn3)cc2)c2c(N)nccn12` the Cmax was 166 ng/mL (human, healthy control, plasma; oral, 50 mg acalabrutinib, single, total, geometric mean).
`C=CC(=O)Nc1cc(Nc2ncc(C(=O)OC(C)C)c(-c3cn(C)c4ccccc34)n2)c(OC)cc1N(C)CCN(C)C` gave a Cmax of 3.2 ng/mL (human, fasted; oral, 20 mg single dose, geometric mean).
With `CC#CC(=O)N1CC[C@@H](n2c(=O)n(-c3ccc(Oc4ccccc4)cc3)c3c(N)ncnc32)C1` the Cmax was 0.14 to 3.3 µM (human, plasma; oral, 20 to 600 mg, dose escalation).
For `CNc1nc(Nc2ccc(-n3cnc(C)n3)c(OC)c2)nc2c1CC[C@H]2c1ccc(F)cc1`, the Cmax was 539 ng/mL (human; oral, 100 mg once daily, day 14, multiple ascending dose, geometric mean).
With `Cc1cn(-c2cc(NC(=O)c3ccc(C)c(Nc4nccc(-c5cccnc5)n4)c3)cc(C(F)(F)F)c2)cn1` the Cmax was 1170 ng/mL (human, serum; oral, 300 mg twice daily, steady state).

Repeated from above:
With `Cc1cn(-c2cc(NC(=O)c3ccc(C)c(Nc4nccc(-c5cccnc5)n4)c3)cc(C(F)(F)F)c2)cn1` the Cmax was 1170 ng/mL (human, serum; oral, 300 mg twice daily, steady state).
